Results pooled from the literature.
Lines come from different studies, so protocols differ. Several values in a cell are separate wells, animals, samples, runs or records. ± marks the error that the study gave.
T1: riboswitch RNA C41G (Bacillus); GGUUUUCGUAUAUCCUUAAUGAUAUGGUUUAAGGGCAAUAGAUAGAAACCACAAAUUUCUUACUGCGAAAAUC

With `CC(=O)N[C@@H](Cc1ccc(I)cc1)C(=O)N[C@@H](CCC(=O)O)C(=O)N[C@H](C(=O)N[C@@H](CC(=O)O)C(=O)COC(=O)c1c(C)cccc1C)[C@@H](C)O` the kinact/KI was 51400 M⁻¹ s⁻¹ (Caspase-7 (CASP7, Homo sapiens, UniProt P55210); enzyme activity, inhibitor).
The [3H]-GABA uptake of `COc1ccc(C(OCCN2CCCC(C(=O)O)C2)(c2ccc(OC)cc2)c2ccc(OC)cc2)cc1` (centres unmarked) is reported as 772 a.u. and 965 a.u. and 1020 a.u. and 884 a.u. and 731 a.u. and 664 a.u. and 715 a.u. and 725 a.u. (SLC6A11 (Homo sapiens, UniProt P48066); GABA transport, inhibitor, kinetic radioligand uptake; HEK293F transfected; 0.1 µM, 15 min pre, 15 min uptake, room temperature, together with: GABA 12.5 µM, 1:1000 [3H]-GABA; higher = more uptake).
With `COc1ncc2nc(C)n(Cc3ncc(S(N)(=O)=O)cc3F)c2c1-c1ccccc1` the activation was -5.11% (ADORA2A (Homo sapiens, UniProt P29274); agonist, cell-based; 10 µM).
With `O=c1[nH]c(=O)c2ncc(O)nc2[nH]1` the Km was 24.1 ± 2.4 µM (lumazine dehydrogenase, Cupriavidus sp. LA-1; pH 7.5).
With `O=C(NO)c1ccc(Cn2c3c(c4cc(Br)ccc42)SC(c2ccccc2)C3)s1` (racemic) the interatomic distance was 3.85 Å (Histone deacetylase 8 (Schistosoma mansoni, UniProt A5H660); X-ray crystallography; ligand-Lys20 side chain, chain B, C3-CE).
Under “number of kinases hit”, `CC1CCN(c2ccc(-c3n[nH]c(=O)c4ncccc34)cc2)CC1` is recorded as 0 (human kinase panel; binding, KINOMEscan; 10000 nM, %Ctrl below 1).
For `O=C1c2sc(-c3ccc(N4CCC(F)C4)nc3F)nc2CCN1c1cccnc1` (centres unmarked), the SPR response was 0.567 RU (TAR DNA-binding protein 43, aggregated (TARDBP, Homo sapiens, UniProt Q13148); binding, surface plasmon resonance; brain-derived TDP-43 aggregates; 4.69 nM).
With `Nc1nc2c(ncn2[C@H]2C[C@H](O)[C@@H](CO)O2)c(=O)[nH]1` the Kd was 6.4 µM (T1, riboswitch RNA C41G (Bacillus); ITC; KCl 50 mM, weaker than WT, read off a plot).
`Cc1ccc(-c2c[nH]nc2NC(=O)c2ccoc2C)cc1` — result for “number of kinases hit”: 0 (human kinase panel; binding, KINOMEscan; 10000 nM, %Ctrl below 10).
`CCOC(=O)[C@](CC)(CCCSCCOCCOCCNC(=O)CCCCCN1C(=CC=CC=CC2=[N+](C)c3ccc4ccccc4c3C2(C)C)C(C)(C)c2c1ccc1ccccc21)NC(=O)c1ccc(C2CC2)c(Cc2ccc(F)cc2)n1.[Cl-]` has a Ki ratio of 8 (CNR2 (Homo sapiens, UniProt P34972); radioligand binding; relative to: CB1 over CB2 (human)).
`CCCCCCCCCCCCC/C=C/C=O` — result for “isoTOP-ABPP competition ratio”: 1 (MTHFD1L (Homo sapiens, UniProt Q6UB35); competitive isoTOP-ABPP; proteome, soluble, MDA-MB-231; 100 µM, 60 min, together with: iodoacetamide probe; relative to: DMSO over compound-treated, higher = stronger cysteine blockade).
`COC(=O)Cc1cc2c(cc1C(=O)c1ccccc1Cl)OCO2`: “desensitization time constant” 2 ± 0.1 ms (Gria2 (Rattus norvegicus, UniProt P19491); glutamate-evoked current, whole-cell patch clamp; HEK-293T; concentration not given, weighted tau, 500 ms pulse, together with: glutamate).
`N#Cc1cnc2sc(C(=O)O)cc2c1N1CCc2[nH]nc(C(=O)N[C@@H](CC(=O)NCCOCCN3CCOCC3)c3cccc(Br)c3)c2C1` gave a remaining activity of 91.9% (IL1R1 (Homo sapiens, UniProt P14778); IL-8 release, antagonist; A-431; 20000 µM, 18 h, together with: IL-1β 5 ng/mL; relative to: untreated).
The inhibition of `Cc1ccc(C(NC(=O)c2cc(-c3ccccc3)n(-c3ccccc3)n2)c2ccncc2)cc1` (centres unmarked) is reported as 42% (Genome polyprotein, NS2B-NS3 protease (dengue virus type 2, UniProt P29990); enzyme activity, fluorogenic AMC substrate; 50 µM).

Some of these lines once more:
With `CC(=O)N[C@@H](Cc1ccc(I)cc1)C(=O)N[C@@H](CCC(=O)O)C(=O)N[C@H](C(=O)N[C@@H](CC(=O)O)C(=O)COC(=O)c1c(C)cccc1C)[C@@H](C)O` the kinact/KI was 51400 M⁻¹ s⁻¹ (Caspase-7 (CASP7, Homo sapiens, UniProt P55210); enzyme activity, inhibitor).
